Assay results gathered from unrelated publications.
Each numbered part is a random draw from the data of one study; scales do not carry over between parts.
Sequence of UniProt P49137 (whole entry, looked up): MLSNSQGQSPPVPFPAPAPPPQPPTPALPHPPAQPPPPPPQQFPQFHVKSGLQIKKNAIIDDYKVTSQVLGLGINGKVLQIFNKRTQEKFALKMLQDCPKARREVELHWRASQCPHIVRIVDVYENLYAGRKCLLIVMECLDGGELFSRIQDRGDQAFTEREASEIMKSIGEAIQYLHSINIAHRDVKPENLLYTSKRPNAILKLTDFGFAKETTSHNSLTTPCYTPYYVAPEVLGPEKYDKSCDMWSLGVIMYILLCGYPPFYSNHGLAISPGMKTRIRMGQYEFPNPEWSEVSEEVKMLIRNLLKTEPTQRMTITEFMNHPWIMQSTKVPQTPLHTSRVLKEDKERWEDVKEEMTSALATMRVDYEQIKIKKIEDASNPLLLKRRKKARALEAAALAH
Sequence of UniProt P22607 (whole entry, looked up): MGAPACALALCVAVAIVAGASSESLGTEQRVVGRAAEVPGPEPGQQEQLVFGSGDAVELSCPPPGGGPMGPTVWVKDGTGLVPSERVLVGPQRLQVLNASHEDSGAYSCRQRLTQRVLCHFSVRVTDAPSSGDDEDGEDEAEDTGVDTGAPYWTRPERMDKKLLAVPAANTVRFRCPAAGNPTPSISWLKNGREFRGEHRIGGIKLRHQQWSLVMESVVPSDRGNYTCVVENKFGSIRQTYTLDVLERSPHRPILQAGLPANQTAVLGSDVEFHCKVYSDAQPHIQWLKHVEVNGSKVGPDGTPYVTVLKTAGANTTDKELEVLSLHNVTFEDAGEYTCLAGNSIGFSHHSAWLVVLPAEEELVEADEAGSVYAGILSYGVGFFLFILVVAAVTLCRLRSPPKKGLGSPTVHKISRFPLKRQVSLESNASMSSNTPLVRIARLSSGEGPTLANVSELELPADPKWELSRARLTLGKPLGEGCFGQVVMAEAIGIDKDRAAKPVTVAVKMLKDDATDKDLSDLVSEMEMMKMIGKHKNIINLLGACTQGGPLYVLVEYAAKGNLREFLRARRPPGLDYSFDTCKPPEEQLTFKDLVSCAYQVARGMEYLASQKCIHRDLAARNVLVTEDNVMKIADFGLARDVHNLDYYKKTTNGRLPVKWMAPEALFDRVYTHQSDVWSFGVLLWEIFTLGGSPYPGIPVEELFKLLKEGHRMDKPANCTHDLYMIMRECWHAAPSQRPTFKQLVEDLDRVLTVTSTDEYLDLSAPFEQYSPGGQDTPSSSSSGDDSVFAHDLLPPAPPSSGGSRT
Sequence of UniProt Q9HC98 (whole entry, looked up): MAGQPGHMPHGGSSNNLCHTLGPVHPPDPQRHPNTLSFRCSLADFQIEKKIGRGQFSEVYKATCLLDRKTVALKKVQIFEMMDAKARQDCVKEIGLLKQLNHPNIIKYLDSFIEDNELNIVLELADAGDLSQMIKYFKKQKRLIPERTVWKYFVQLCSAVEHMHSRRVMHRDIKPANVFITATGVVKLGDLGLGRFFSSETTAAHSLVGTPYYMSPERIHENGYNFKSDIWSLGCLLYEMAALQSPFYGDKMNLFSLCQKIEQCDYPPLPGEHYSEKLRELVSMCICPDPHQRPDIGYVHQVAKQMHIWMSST
Sequence of UniProt P42685 (whole entry, looked up): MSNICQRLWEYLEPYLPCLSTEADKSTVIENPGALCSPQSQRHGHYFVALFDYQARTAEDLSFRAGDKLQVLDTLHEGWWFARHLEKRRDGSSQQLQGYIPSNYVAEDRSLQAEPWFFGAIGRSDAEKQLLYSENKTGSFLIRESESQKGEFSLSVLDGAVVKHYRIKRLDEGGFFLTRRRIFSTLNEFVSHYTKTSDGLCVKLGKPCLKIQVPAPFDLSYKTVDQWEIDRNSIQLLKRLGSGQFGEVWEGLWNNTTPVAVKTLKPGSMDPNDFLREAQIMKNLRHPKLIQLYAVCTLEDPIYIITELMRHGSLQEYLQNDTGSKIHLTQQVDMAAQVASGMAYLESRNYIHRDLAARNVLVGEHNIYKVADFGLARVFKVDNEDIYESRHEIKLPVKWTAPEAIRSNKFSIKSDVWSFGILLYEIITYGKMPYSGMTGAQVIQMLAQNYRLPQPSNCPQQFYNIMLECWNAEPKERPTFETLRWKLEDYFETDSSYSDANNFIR
Sequence of UniProt P78368 (whole entry, looked up): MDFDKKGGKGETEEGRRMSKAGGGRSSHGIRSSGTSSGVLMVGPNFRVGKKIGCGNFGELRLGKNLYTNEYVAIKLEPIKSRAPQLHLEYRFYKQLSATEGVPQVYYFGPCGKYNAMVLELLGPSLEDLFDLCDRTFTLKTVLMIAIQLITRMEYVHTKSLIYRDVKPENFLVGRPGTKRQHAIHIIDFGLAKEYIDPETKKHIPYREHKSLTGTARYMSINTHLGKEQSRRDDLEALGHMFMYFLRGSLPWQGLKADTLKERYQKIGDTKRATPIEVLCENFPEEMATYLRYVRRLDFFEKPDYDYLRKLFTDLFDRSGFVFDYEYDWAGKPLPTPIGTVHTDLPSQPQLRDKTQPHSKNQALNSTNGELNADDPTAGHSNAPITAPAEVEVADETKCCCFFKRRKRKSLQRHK
Sequence of UniProt P49841 (whole entry, looked up): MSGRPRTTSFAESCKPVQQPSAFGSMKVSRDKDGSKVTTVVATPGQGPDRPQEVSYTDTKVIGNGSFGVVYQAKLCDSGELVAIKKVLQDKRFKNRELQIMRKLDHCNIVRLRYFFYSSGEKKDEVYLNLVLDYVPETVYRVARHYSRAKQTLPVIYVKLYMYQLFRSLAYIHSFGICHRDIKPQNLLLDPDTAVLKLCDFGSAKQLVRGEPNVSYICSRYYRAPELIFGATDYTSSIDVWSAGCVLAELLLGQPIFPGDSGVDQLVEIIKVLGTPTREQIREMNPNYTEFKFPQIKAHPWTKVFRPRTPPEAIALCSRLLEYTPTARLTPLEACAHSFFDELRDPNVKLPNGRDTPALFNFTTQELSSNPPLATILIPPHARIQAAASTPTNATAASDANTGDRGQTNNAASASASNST
Sequence of UniProt Q9UL54 (whole entry, looked up): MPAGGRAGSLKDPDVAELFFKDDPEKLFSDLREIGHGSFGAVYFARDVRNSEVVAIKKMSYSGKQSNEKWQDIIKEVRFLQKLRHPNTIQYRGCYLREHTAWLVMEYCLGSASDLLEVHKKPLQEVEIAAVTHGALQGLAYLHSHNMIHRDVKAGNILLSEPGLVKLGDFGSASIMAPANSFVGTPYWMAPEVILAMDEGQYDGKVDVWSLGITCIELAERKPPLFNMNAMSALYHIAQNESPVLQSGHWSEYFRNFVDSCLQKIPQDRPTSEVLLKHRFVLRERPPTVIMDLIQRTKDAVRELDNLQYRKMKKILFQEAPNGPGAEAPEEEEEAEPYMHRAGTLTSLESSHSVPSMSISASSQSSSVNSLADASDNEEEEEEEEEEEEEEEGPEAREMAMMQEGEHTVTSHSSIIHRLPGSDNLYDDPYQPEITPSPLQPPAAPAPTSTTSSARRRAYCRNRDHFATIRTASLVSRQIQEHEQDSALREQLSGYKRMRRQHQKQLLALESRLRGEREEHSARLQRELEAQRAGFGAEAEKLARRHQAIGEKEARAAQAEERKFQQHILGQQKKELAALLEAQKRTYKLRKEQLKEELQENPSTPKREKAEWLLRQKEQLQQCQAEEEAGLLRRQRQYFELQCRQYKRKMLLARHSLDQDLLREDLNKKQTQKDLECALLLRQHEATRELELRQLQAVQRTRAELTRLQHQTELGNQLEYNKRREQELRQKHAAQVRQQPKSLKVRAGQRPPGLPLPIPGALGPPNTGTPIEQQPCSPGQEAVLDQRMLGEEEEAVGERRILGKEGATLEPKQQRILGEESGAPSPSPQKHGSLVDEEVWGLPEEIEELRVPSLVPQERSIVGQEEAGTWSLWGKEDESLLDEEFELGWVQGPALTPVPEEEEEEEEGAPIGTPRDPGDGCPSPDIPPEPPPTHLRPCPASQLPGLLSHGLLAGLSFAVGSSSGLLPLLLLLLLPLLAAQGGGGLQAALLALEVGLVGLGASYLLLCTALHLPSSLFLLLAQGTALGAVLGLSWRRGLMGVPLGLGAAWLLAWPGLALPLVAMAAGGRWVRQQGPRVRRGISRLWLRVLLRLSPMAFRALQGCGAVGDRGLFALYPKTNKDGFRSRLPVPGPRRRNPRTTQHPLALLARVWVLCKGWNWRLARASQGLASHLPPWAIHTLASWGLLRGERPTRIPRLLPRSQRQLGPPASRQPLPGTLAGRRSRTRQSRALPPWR
Sequence of UniProt P06239 (whole entry, looked up): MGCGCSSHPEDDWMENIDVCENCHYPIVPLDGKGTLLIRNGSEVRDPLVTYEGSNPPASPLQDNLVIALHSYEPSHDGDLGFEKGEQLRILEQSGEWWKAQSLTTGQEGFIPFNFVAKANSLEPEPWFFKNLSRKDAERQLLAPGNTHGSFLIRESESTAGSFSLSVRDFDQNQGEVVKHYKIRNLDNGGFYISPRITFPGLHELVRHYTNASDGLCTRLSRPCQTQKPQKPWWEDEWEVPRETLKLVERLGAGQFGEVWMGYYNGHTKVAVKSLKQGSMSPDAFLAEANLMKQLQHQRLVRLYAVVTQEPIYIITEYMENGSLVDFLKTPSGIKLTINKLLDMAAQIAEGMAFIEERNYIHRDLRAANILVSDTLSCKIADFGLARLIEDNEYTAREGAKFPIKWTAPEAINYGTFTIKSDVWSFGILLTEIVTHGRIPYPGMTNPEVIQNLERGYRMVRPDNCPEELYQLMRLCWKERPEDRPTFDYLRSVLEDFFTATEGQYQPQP
Sequence of UniProt P27361 (whole entry, looked up): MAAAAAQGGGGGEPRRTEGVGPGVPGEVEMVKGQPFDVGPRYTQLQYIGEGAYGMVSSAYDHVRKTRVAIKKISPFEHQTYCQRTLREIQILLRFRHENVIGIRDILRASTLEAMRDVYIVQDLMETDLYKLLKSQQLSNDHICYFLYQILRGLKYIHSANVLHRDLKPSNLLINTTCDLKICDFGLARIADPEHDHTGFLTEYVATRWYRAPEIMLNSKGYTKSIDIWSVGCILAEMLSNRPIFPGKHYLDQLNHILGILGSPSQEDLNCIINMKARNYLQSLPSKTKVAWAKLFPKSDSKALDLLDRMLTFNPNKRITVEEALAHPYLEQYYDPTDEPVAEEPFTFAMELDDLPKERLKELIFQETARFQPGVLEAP

Study 1
Structure (SMILES): O=C1NC(=O)c2c1c1c3ccccc3n3c1c1c2c2ccccc2n1[C@H]1CC[C@@H]3O1
Observed: enzyme activity
Action: inhibitor
Concentration: 0.5 µM
Reference: control
Quantity: remaining activity
CSNK1G2 (Homo sapiens, UniProt P78368): 81.8%
MAPKAPK2 (Homo sapiens, UniProt P49137): 99.2%
FGFR1 (Homo sapiens, UniProt P11362): 29.1%
LCK (Homo sapiens, UniProt P06239): 36.2%
FGFR3 (Homo sapiens, UniProt P22607): 36.3%
TAOK2 (Homo sapiens, UniProt Q9UL54): 57.4%
FRK (Homo sapiens, UniProt P42685): 102%
MAP3K14 (Homo sapiens, UniProt Q99558): 134%
WEE1 (Homo sapiens, UniProt P30291): 16.9%
NEK6 (Homo sapiens, UniProt Q9HC98): 93.1%
MAPK3 (Homo sapiens, UniProt P27361): 102%
GSK3B (Homo sapiens, UniProt P49841): 4.6%
ULK3 (Homo sapiens, UniProt Q6PHR2): 33%
MAP2K2 (Homo sapiens, UniProt P36507): 87.9%

Study 2
Cell line: HEK-293T-ACE2-TMPRSS2
Technique: cell count
Concentration: 10 µM
Quantity: viability
Cc1ccc2[nH]c(C(=O)NCc3cccs3)c(NCc3ccc(Cl)cc3)c2c1: 103%
N#CC(C#N)=NNc1ccc2c(c1)OCCO2: 65%
Cc1ccc(NC(=O)C(C)Oc2cc(C)nc(N3CCN(c4ccccc4)CC3)n2)cc1 (centres unmarked): 104%
COc1ccc(CCN(C)Cc2cnc(S(C)(=O)=O)n2CC2CCCO2)cc1OC (centres unmarked): 109%
CCc1cc(C(=O)NCc2cc(C)cc3c(C)c(CC)[nH]c23)n(C)n1: 78%
CCC(C)(C(=O)NC1CCCCC1)N(Cc1ccco1)C(=O)CNC(C)=O (centres unmarked): 106%
CC(C)=CCC[C@]1(C)C=Cc2c(O)c3c(c(CC=C(C)C)c2O1)O[C@]12C(=C[C@@H]4C[C@H]1C(C)(C)OC2(C/C=C(/C)C(=O)O)C4=O)C3=O: 101%
COc1ccc2c(c1)[nH]c1c(C)nccc12: 86%

Study 3
Target: Diamine acetyltransferase 1 (Homo sapiens, UniProt P21673)
Action: inhibitor
Concentration: 10 µM
Reference: control
Quantity: remaining activity
Construct (P21673 1-171): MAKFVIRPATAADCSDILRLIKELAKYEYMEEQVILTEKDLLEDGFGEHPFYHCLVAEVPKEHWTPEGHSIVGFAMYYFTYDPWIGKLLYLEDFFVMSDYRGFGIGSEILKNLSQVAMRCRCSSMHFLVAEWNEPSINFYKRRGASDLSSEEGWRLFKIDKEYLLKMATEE
c1cc2c(cc1[C@H]1OC[C@H]3[C@@H]1CO[C@H]3c1ccc3c(c1)OCO3)OCO2: 106%
CCCCC(CC)COC(=O)c1ccccc1C(=O)OCC(CC)CCCC (centres unmarked): 114%
C=C[C@H]1[C@H](O[C@@H]2O[C@H](CO)[C@@H](O)[C@H](O)[C@H]2O)OC=C2C(=O)OCC[C@H]21: 96.3%
CN(C)Cc1c[nH]c2ccccc12: 106%
COc1cc2ccc(=O)oc2c2ccoc12: 86.6%

Study 4
Cell line: HEK-293T-ACE2
Technique: Hoechst nuclei count
Concentration: concentration not given
Setting: counter-screen
Reference: vehicle
Quantity: cell number
Cc1ccc([C@@H]2O[C@H](CO)[C@@H](O)[C@H](O)[C@H]2O)cc1Cc1ccc(-c2ccc(F)cc2)s1: 99%
CC(C)C[C@H](NC(=O)[C@H](CCc1ccccc1)NC(=O)CN1CCOCC1)C(=O)N[C@@H](Cc1ccccc1)C(=O)N[C@@H](CC(C)C)C(=O)[C@@]1(C)CO1: 80.6%
CCC(=O)O[C@@H](O[P@](=O)(CCCCc1ccccc1)CC(=O)N1C[C@H](C2CCCCC2)C[C@H]1C(=O)[O-])C(C)C.[Na+]: 100%
CC(C)(C)c1cc(C(C)(C)C)c(NC(=O)c2c[nH]c3ccccc3c2=O)cc1O: 96.5%
COS(=O)(=O)[O-].C[N+]1(C)CCC(=C(c2ccccc2)c2ccccc2)CC1: 97.3%
CCOc1cc([C@@H](CS(C)(=O)=O)N2C(=O)c3cccc(NC(C)=O)c3C2=O)ccc1OC: 98%
CC(C)C(=O)OCC(=O)[C@@]12O[C@H](C3CCCCC3)O[C@@H]1C[C@H]1[C@@H]3CCC4=CC(=O)C=C[C@]4(C)[C@H]3[C@@H](O)C[C@@]12C: 102%
C[C@H]1O[C@]2(CS1)CN1CCC2CC1.C[C@H]1O[C@]2(CS1)CN1CCC2CC1.Cl.Cl.O: 98.3%

Repeated from above (study 4):
CC(C)C[C@H](NC(=O)[C@H](CCc1ccccc1)NC(=O)CN1CCOCC1)C(=O)N[C@@H](Cc1ccccc1)C(=O)N[C@@H](CC(C)C)C(=O)[C@@]1(C)CO1: 80.6%
CCC(=O)O[C@@H](O[P@](=O)(CCCCc1ccccc1)CC(=O)N1C[C@H](C2CCCCC2)C[C@H]1C(=O)[O-])C(C)C.[Na+]: 100%
CC(C)(C)c1cc(C(C)(C)C)c(NC(=O)c2c[nH]c3ccccc3c2=O)cc1O: 96.5%
COS(=O)(=O)[O-].C[N+]1(C)CCC(=C(c2ccccc2)c2ccccc2)CC1: 97.3%
CCOc1cc([C@@H](CS(C)(=O)=O)N2C(=O)c3cccc(NC(C)=O)c3C2=O)ccc1OC: 98%
CC(C)C(=O)OCC(=O)[C@@]12O[C@H](C3CCCCC3)O[C@@H]1C[C@H]1[C@@H]3CCC4=CC(=O)C=C[C@]4(C)[C@H]3[C@@H](O)C[C@@]12C: 102%
